Assay results collected from several papers.
± marks the error that the study gave. ≈ marks a conversion by molar mass, not a printed value.

| Molecule | target or system | test | test system | setting | scale | measurement | value |
| --- | --- | --- | --- | --- | --- | --- | --- |
| COc1ccc(-c2nc3ccccc3s2)cc1OCc1nnc(-c2ccc(N(C)C)cc2)o1 |  | hind limb tonic extension | albino mouse, MES-induced seizure | ip, 0.5 h |  | minimal effective dose | 100 mg/kg |
| Cc1cc(C)c(/C=C2\C(=O)Nc3ccccc32)[nH]1 |  | MRI | human | concentration not given, 1.3 months |  | tumour area | 1.3 cm² |
| neuropeptide Y |  |  | Sprague Dawley rat, urethane-anaesthetised | intravenous, 5 nmol |  | time to peak bradycardia | 1.8 ± 0.3 min |
| Cn1c(-c2ccc(C(N)=O)cc2F)nnc1C(C)(C)Oc1c(F)cc(Cl)cc1F |  |  | young Japanese subjects, plasma | oral, 50 mg single dose, day 1 |  | Cmax mean | 0.673 µg/mL |
| CC(C)NC[C@@H](C(=O)N1CCN(c2ncnc3c2[C@H](C)C[C@H]3O)CC1)c1ccc(Cl)cc1 |  |  | human solid tumour patients | oral, 25 to 800 mg, all dosing cohorts |  | stable disease or incomplete response | 34% |
| c1ccc2c(c1)ccc1c3c(ccc12)CCC3 |  | adrenal apoplexy prevention | rat | oral, together with: 7,12-DMBA 5 mg i.v. |  | non-protective dose | 1 mg |
| SIIVFEKL |  | flow cytometry, refers to: CD44hi CD8+ T cells | peptide, OT-I CD8+ T cells, mouse | dose not given, primed 5 days, restimulated 100 ng/mL OVA257, together with: no TGF-β1 |  | IL-2 only cells | 5.55% |
| CS/C(S)=N/CCCC[S+](C)[O-] (racemic) |  | RT-PCR, refers to: Alad | rat, colon | oral gavage, 200 mg/kg, 96 h, dosed for four days | baseline: vehicle | mRNA fold change | 3.45 |
| Cc1c2ccccc2c(C)c2c1ccc1ccccc12 |  | inducer | female rat, liver | oral, 1 mg, 24 h, sesame oil vehicle |  | menadione reductase activity | 30 enzyme units |
| COc1ccc(Cl)cc1C(=O)NCCc1ccc(S(=O)(=O)NC(=O)NC2CCCCC2)cc1 |  |  | STZ-induced diabetic rat, liver | oral, 0.5 mg/kg, day 28 |  | SOD activity | 8.71 ± 0.57 U/mg protein |
| C=CCn1c(=O)c2cnc(Nc3ccc(N4CCN(C)CC4)cc3)nc2n1-c1cccc(C(C)(C)O)n1 |  | immunohistochemistry | human patients, resected tumour | dose not given, 8 h, all dose cohorts combined | baseline: matched archival tissue | increase in γH2AX level | 210% |
| Cc1c(OCC(F)(F)F)ccnc1C[S@@+]([O-])c1nc2ccccc2[nH]1 |  |  | healthy humans | oral, 60 mg, 0 to 12 h postdose, single dose |  | mean intragastric pH | 4.2 |
| LYQY |  |  | peptide, EpH4, mouse | 350 µM, 24 h, recovery after calcium switch |  | transepithelial resistance | 825 ± 156 Ohm·cm² |
| O=C1CCc2ccc(OCc3nnc(SCc4ccc(C(F)(F)F)cc4)o3)cc2N1 |  | forced swim test | mouse | 40 mg/kg, 0.5 h | baseline: vehicle | decrease in immobility | 52.1% |
| CC(=O)N[C@@H](CCCCN)C(=O)N[C@@H](CC(C)C)C(=O)N[C@@H](CC(=O)O)C(=O)N[C@@H](CC(C)C)C(=O)N[C@@H](CCCCN)C(=O)N[C@@H](CC(C)C)C(=O)N[C@@H](CC(=O)O)C(=O)N[C@@H](CC(C)C)C(=O)N[C@@H](CCCCN)C(=O)N[C@@H](CC(C)C)C(=O)N[C@@H](CC(=O)O)C(=O)N[C@@H](CC(C)C)C(N)=O |  |  | Sprague Dawley rat, knee OA model, synovium | intra-articular, dose not given, 6 weeks | direction not given | synovial inflammation score | 1.3 ± 0.3 |
| CC(C)(O)CNc1nc(Nc2ccnc(C(F)(F)F)c2)nc(-c2cccc(C(F)(F)F)n2)n1 |  | refers to: 2-hydroxyglutarate | human newly diagnosed mIDH AML | oral, 100 mg once daily, induction cycle 1 day 1, together with: induction chemotherapy |  | plasma 2-HG reduction AUEC0-24 | 18.7% |
| COCCc1ccc(OCC(O)CNC(C)C)cc1 (stereo not drawn) |  |  | rats, adrenaline arrhythmia, plasma | intragastric, 2.57 g/kg daily, 14 days |  | SOD activity | 164 ± 12 U/L |
| CC(C)[C@H](N)C(=O)O | Methyl-accepting chemotaxis protein Tlp3, sensing domain (Campylobacter jejuni, UniProt Q0P864) | binding, thermal shift |  | zero heat capacity change at Tm |  | Kd | 2120 ± 505 µM |
| Cc1ccc(C(=O)N(C(=O)c2ccc(C)cc2)C(=S)N2N=C(c3ccc(F)cc3)CC2c2cccc(F)c2)cc1 (stereo not drawn) |  | DPPH scavenging, absorbance |  |  |  | IC50 | 103 µM |
| CC(C)=CCOc1c2occc2cc2ccc(=O)oc12 |  |  | female SENCAR mice, liver cytosol | oral, 70 mg/kg, 4 days, together with: CDNB substrate | baseline: corn oil vehicle, maximum induction | GST activity | 260% |
| insulin aspart |  | euglycaemic clamp | type 1 diabetes patients | subcutaneous, 0.2 U/kg single, 2 h to 12 h, antibody quartile 2, 3.12-6.53 %B/T |  | AUC glucose infusion rate | 745 mg/kg |

| Molecule | target or system | test | test system | setting | scale | measurement | value |
| --- | --- | --- | --- | --- | --- | --- | --- |
| Cc1csc(-c2nnc(Nc3ccc(Oc4ncccc4-c4ccnc(N)n4)cc3)c3ccccc23)c1 |  |  | human | 40 mg |  | stable disease duration | > 3 years |
| CCCCC/C=C\C/C=C\CCCCCCCC(=O)O |  |  | neonatal hUGT1 mice | oral, dose not given, 48 h |  | serum total bilirubin | 1.9 mg/dL |
| CC(C(=O)O)c1ccc(-c2ccccc2)c(F)c1 (stereo not drawn) |  |  | rat, carrageenan paw edema | oral, 2 mg/kg |  | time of maximum edema inhibition | ≤ 2 h |
| LRKLRKRLLRDWLKAFYDKVAEKLKEAF (N-acetyl, C-amide) |  | Oil Red O en face | peptide, female apoE-null mice, aorta | retro-orbital, 100 µg three times weekly, 6 weeks | baseline: control group | aortic lesion area | decreased |
| Cc1cnc(-c2ccnc(C(C)(C)O)n2)cc1-n1c(C)cc(OCc2ncc(F)cc2F)c(Cl)c1=O |  | IL-6 release, inhibitor | human, whole blood, ex vivo | plasma concentration, together with: LPS |  | IC80 | 0.748 mg/L (≈ 1.46 µM) |
| C[C@H]1C[C@H]2CSC(N)=N[C@@]2(c2nc(NC(=O)c3ccc(OC(F)F)cn3)cs2)CO1 |  | refers to: CSF Aβx-40 | healthy adults | 125 mg once daily, 14 days, day 15 | baseline: placebo-adjusted baseline | change from baseline | -78.9% |
| CC[C@H](C)[C@H](NC(=O)[C@H](Cc1ccc(O)cc1)NC(=O)[C@H](CCC(=O)O)NC(=O)[C@H](CCCNC(=N)N)NC(=O)[C@@H](NC(=O)[C@H](Cc1c[nH]c2ccccc12)NC(=O)[C@H](CCCCN)NC(=O)[C@H](CCCCN)NC(=O)[C@H](CCC(=O)O)NC(=O)CNC(=O)CON=C(C)CCCC(=O)NCCCC[C@@H]1NC(=O)[C@H](CCC(=O)O)NC(=O)[C@H](CCCCNC(=O)CCCC(C)=NOCC(=O)NCC(=O)N[C@@H](CCC(=O)O)C(=O)N[C@@H](CCCCN)C(=O)N[C@@H](CCCCN)C(=O)N[C@@H](Cc2c[nH]c3ccccc23)C(=O)N[C@H](C(=O)N[C@@H](CCCNC(=N)N)C(=O)N[C@@H](CCC(=O)O)C(=O)N[C@@H](Cc2ccc(O)cc2)C(=O)N[C@H](C(=O)N[C@@H](CC(N)=O)C(=O)N[C@@H](CO)C(=O)N[C@@H](CC(C)C)C(=O)N[C@@H](CCC(=O)O)C(=O)N[C@@H](CCSC)C(=O)N[C@@H](CO)C(=O)O)[C@@H](C)CC)C(C)C)NC(=O)[C@@H]2CCCN2C(=O)[C@H](CSCC(N)=O)NC(=O)[C@H](CCCCNC(=O)CCCC(C)=NOCC(=O)NCC(=O)N[C@@H](CCC(=O)O)C(=O)N[C@@H](CCCCN)C(=O)N[C@@H](CCCCN)C(=O)N[C@@H](Cc2c[nH]c3ccccc23)C(=O)N[C@H](C(=O)N[C@@H](CCCNC(=N)N)C(=O)N[C@@H](CCC(=O)O)C(=O)N[C@@H](Cc2ccc(O)cc2)C(=O)N[C@H](C(=O)N[C@@H](CC(N)=O)C(=O)N[C@@H](CO)C(=O)N[C@@H](CC(C)C)C(=O)N[C@@H](CCC(=O)O)C(=O)N[C@@H](CCSC)C(=O)N[C@@H](CO)C(=O)O)[C@@H](C)CC)C(C)C)NC(=O)[C@H](CCCCN)NC(=O)[C@H](CCCCNC(=O)CCCC(C)=NOCC(=O)NCC(=O)N[C@@H](CCC(=O)O)C(=O)N[C@@H](CCCCN)C(=O)N[C@@H](CCCCN)C(=O)N[C@@H](Cc2c[nH]c3ccccc23)C(=O)N[C@H](C(=O)N[C@@H](CCCNC(=N)N)C(=O)N[C@@H](CCC(=O)O)C(=O)N[C@@H](Cc2ccc(O)cc2)C(=O)N[C@H](C(=O)N[C@@H](CC(N)=O)C(=O)N[C@@H](CO)C(=O)N[C@@H](CC(C)C)C(=O)N[C@@H](CCC(=O)O)C(=O)N[C@@H](CCSC)C(=O)N[C@@H](CO)C(=O)O)[C@@H](C)CC)C(C)C)NC(=O)[C@@H]2CCCN2C(=O)CNC1=O)C(C)C)C(=O)N[C@@H](CC(N)=O)C(=O)N[C@@H](CO)C(=O)N[C@@H](CC(C)C)C(=O)N[C@@H](CCC(=O)O)C(=O)N[C@@H](CCSC)C(=O)N[C@@H](CO)C(=O)O |  | flow cytometry | human blood platelets | concentration not given, outcome inhibited, together with: CXCL12 1 µg/mL |  | Btk phosphorylation | inhibited |
| O=C(/C=C/c1cc(F)cc(F)c1)c1ccc[nH]1 |  |  | zebrafish larvae, PTZ seizure model | 8.58 µM, 1 h, 5 dpf larvae, together with: 2.5 mM pentylenetetrazole | baseline: PTZ alone | distance travelled | decreased |
| O=C(O)/C=C/c1ccc(O)c(O)c1 |  | DPPH | ethanol | 20 µM, 30 min, room temperature |  | radical scavenging | 72% |
| difelikefalin |  |  | Japanese haemodialysis patients with pruritus | intravenous, 0.5 µg/kg thrice weekly, week 8 | baseline: baseline, direction not given | NRS itch score change | -3.65 |
| COc1ccc(-c2nc3ccccc3s2)cc1OCc1nnc(-c2cc([N+](=O)[O-])cc([N+](=O)[O-])c2O)o1 |  | hind limb tonic extension | albino mouse, MES-induced seizure | ip, 0.5 h |  | minimal effective dose | 30 mg/kg |
| Fc1ccc(Nc2n[nH]c3cccnc23)cc1Cl |  |  | rat, haloperidol-induced catalepsy | 30 mg/kg |  | time to reversal of catalepsy | ≥ 6 h |
| COc1ccc(-c2nnc(COc3cc(-c4nc5ccccc5s4)ccc3OC)o2)cc1 |  | seizure protection | albino mouse, scPTZ-induced seizure | ip, 4.0 h |  | minimal effective dose | 300 mg/kg |
| Cc1cccc2cc3c(cc12)c(C)cc1ccccc13 |  | adrenal apoplexy prevention | rat | oral, together with: 7,12-DMBA 5 mg i.v. |  | non-protective dose | 0.5 mg |
| O=C1c2c(O)cc(O)cc2O[C@H](c2cc(O)c(O)c(O)c2)[C@H]1O |  |  | rat, intermittent ethanol access | oral in drinking fluid, 0.05 mg/mL, end of week 7 |  | ethanol intake | 1.8 ± 1 g/kg/day |
| COc1ccc(-c2nc3ccccc3s2)cc1OCc1nnc(-c2c(OC)cccc2OC)o1 |  | hind limb tonic extension | albino mouse, MES-induced seizure | ip, 4.0 h |  | minimal effective dose | 100 mg/kg |
| CCN(CC)c1ccc2nc3ccc(N=Nc4ccc(N(C)CCCC(=O)NCCCC[C@H](NC(=O)CNC(=O)[C@H](CCCNC(=N)N)NC(=O)[C@@H](NC(=O)CNC(=O)[C@H](CC(C)C)NC(=O)[C@@H]5CCCN5C(=O)CNC(=O)CCCCC[N+]5=C(C=CC=CC=C6N(CC)c7ccc8c(S(=O)(=O)[O-])cc(S(=O)(=O)O)cc8c7C6(C)C)C(C)(C)c6c5ccc5c(S(=O)(=O)[O-])cc(S(=O)(=O)O)cc65)C(C)C)C(=O)NCC(=O)NCC(=O)NCCOCCOCCOCCOCCOCCOCCOCCOCCOCCOCCOCCO)cc4)cc3[n+](-c3ccccc3)c2c1 |  | ex vivo fluorescence imaging | nude mice SCC-7 tumour | iv, 10 nmol/mouse, 2 h |  | tumour to muscle ratio | 6.27 ± 1.46 |
| O=C1NC(=O)C(c2ccccc2)(c2ccccc2)N1 |  | seizure protection | albino mouse, scPTZ-induced seizure | ip, 0.5 h |  | minimal effective dose | 30 mg/kg |
| CN(Cc1cccc(Cl)c1)Cc1cccc(CN(C)Cc2cccc(Cl)c2)n1 |  |  | mouse carrageenan paw edema | ip, 10 mg/kg daily, 74 h | baseline: vehicle | paw edema inhibition | < 20% |
| c1ccc2c(c1)ccc1c3ccccc3ccc21 |  | inducer | female rat, liver | oral, 10 mg, 24 h, sesame oil vehicle |  | menadione reductase activity | 38.2 enzyme units |
| NC(=O)/C(=C/n1cnc(-c2cc(C(F)(F)F)cc(C(F)(F)F)c2)n1)c1cncnc1 |  |  | Eµ-TCL1 leukaemic splenocytes, C57BL/6 mice CLL transplant | oral gavage, 15 mg/kg 2 times weekly |  | median overall survival | 50 days |

Excerpt of the above:
| Molecule | target or system | test | test system | setting | scale | measurement | value |
| --- | --- | --- | --- | --- | --- | --- | --- |
| difelikefalin |  |  | Japanese haemodialysis patients with pruritus | intravenous, 0.5 µg/kg thrice weekly, week 8 | baseline: baseline, direction not given | NRS itch score change | -3.65 |
| COc1ccc(-c2nc3ccccc3s2)cc1OCc1nnc(-c2cc([N+](=O)[O-])cc([N+](=O)[O-])c2O)o1 |  | hind limb tonic extension | albino mouse, MES-induced seizure | ip, 0.5 h |  | minimal effective dose | 30 mg/kg |
| Fc1ccc(Nc2n[nH]c3cccnc23)cc1Cl |  |  | rat, haloperidol-induced catalepsy | 30 mg/kg |  | time to reversal of catalepsy | ≥ 6 h |
| COc1ccc(-c2nnc(COc3cc(-c4nc5ccccc5s4)ccc3OC)o2)cc1 |  | seizure protection | albino mouse, scPTZ-induced seizure | ip, 4.0 h |  | minimal effective dose | 300 mg/kg |
| Cc1cccc2cc3c(cc12)c(C)cc1ccccc13 |  | adrenal apoplexy prevention | rat | oral, together with: 7,12-DMBA 5 mg i.v. |  | non-protective dose | 0.5 mg |
